# Measurements gathered from unrelated publications.
# Each numbered part is a random draw from the data of one study; scales do not carry over between parts. Substitutions count along the parent as printed.

# Sample 1 — target: CCNE1, cyclin fold, Cln2 fusion (human); technique: yeast growth competition, sequencing; matrix: yeast; notes: strong parent motif; baseline: not given; reading: higher = stronger binding
# Starting sequence: DTL docking peptide (human); PSSMRKICTYFHR
Substitution,normalised enrichment score
F11A,0.311
S3A,0.646
R5A,0.909
T9A,0.817
H12A,1.09
P1A,0.69

# Sample 2 — target: MAFF, bZIP domain (human); technique: DHFR protein complementation; matrix: yeast; baseline: wild-type JUN-FOS pair; reading: higher = stronger binding
# Notes: single substitutions, most at no-binding floor
# Starting sequence: JUN, bZIP domain (human); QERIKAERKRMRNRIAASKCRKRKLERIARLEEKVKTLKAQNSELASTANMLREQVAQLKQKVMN; partner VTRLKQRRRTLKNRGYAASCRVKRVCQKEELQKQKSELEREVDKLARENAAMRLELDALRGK
Substitution,binding fitness [natural log]
L38R,-1.46
E33R,-1.43
A40R,-1.43
R53P,-1.51
A29R,-1.33
I28P,-1.43
E54G,-1.46
L52I,-1.31
V56W,-1.48
K34P,-1.53
L31Y,-1.33
L52P,-1.49
Q55I,-1.45
L38E,-1.32
I28Y,-1.51
A49I,-1.33
S43A,-1.38
K34A,-1.29

# Sample 3 — technique: RNA Bind-n-Seq; molecule type: RNA; matrix: in vitro; tested at: 365 nM; baseline: no-protein control; reading: higher = stronger binding
# Target: RNA binding protein fox-1 homolog 2, RRM domain, GST-SBP tag (RBFOX2, Homo sapiens, UniProt O43251-10, residues 100-194)
# Notes: natural RNA segment, single round, ends assumed
# Target sequence (chain): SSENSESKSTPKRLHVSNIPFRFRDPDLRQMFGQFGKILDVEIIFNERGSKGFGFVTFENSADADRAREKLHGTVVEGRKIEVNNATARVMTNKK
Strand,RBNS enrichment (R)
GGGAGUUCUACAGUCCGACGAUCGCCUUGCGGUCAGGGACUGAAUCUUGCCCGUUUAUGUAUGCUCCAUGUCUAGCCCAUCAUCCUGCUUGGAGCAAGUAGGCAGGAGCUCAAUAAAUGUUUGUUGCAUGAAGUGGAAUUCUCGGGUGCCAA,1.86
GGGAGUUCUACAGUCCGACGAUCUUUAUCUUAUAAUUUCAGUUCAUCUAAAUUGUGUGUUCUGUACAUGUGAUGUUUGACUGUACCAUUGACUGUUAUGGAAGUUCAGCGUUGUAUGUCUCUCUCUACACUGUUGGAAUUCUCGGGUGCCAA,0.76
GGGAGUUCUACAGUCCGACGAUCCUUGAGGUGGCCUCCUUGCUUGUUACAUACCUGGGUAUGUGUAGGCAGUUUAGUGCAUCUUUGCCUCUCGGUUGAAACCUGUAUAACCCUGUUACAAAGCUGUGUUGUUGUGGAAUUCUCGGGUGCCAA,0.709
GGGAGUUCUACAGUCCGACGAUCAGCCCAGAACUUUUCCUUCUCAUUUUGGGUUUUCUCUUCUCCUGCUUUCCUGGGGAGAGAUUAAGCGCUCAUUAAGCAGAGGAGCCCACUUUGAGGAGAGCAAAGCACAAUGGAAUUCUCGGGUGCCAA,0.479
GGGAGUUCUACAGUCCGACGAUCUUUGAGGCUGGGUGAAGUUAAAACACCUUUCCUUAUGUCUCCUGACCUGAAAUUGUAUAGUGUUGAUUUGUGCUGAGAUCAAGAGGCAGGUUAGAAGAACCUGACAUCCAUGGAAUUCUCGGGUGCCAA,0.668
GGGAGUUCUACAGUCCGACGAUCAUGAAAUGACUUGAGGAUUCCAAUUUCUUAUUAGCUUAAGAUGUCACUUAAAAGCUGACAGCCCUCAUCUGUCUCAUUGGCUACAUAAGAGCUGCAGAAGAUCCAUCAAUUGGAAUUCUCGGGUGCCAA,0.372
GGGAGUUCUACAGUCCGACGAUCGAUCUGAAAAGGGCCACUGUUAGGCAAGACAGACAGUAUUGGAUAGGGUAAAGCAAGAAAACUCAAGCUGCAGCUGGACUGCAGGCUUAUUUUGCUUAAGUCAACAGUGCUGGAAUUCUCGGGUGCCAA,0.406
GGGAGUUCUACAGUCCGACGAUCGAGACAUCAUGAGAUGUCUUCCUUAAGCUGCACCAAGCCAUUGUCCUCCGUUGUUCCCAGGACUCAAGAGGAAUUUGUUUCUCUGCUGUCAGCUUCCUGUCUGGCUCAGUUGGAAUUCUCGGGUGCCAA,0.211
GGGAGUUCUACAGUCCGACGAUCCAUGUAAGAGCCAGGUGUUCAGUGGCAUGUGCUUAAAAGUCGCCCCCAACUAAGGUCUGUGUCGCCUUCUUGUAAAUGUUGUAUAUGUUGUAUUUUGUUGGUAAUUAUUUUGGAAUUCUCGGGUGCCAA,1.54
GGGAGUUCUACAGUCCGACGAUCUAUAUUAUAUAUAUAUAUUUUUAAGGUGAAAUACUAAACACUACUUCCUGUCUAUUGAUCUGUAAAAUUAUCAUGUAAAUGUUCUACCAAUUGGCUGUAUAUUUUUGUUGUGGAAUUCUCGGGUGCCAA,0.627
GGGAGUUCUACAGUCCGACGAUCUGACUCAUGUCCCAGGUCUAAGAAAUCUAAAGUGGACUGAGGCAGGCUCCCUUGUGUGUCCCUAUACCCUCCAGCCCUCCUUUAGGGUUCUUUUGGGGGUAAGGGGCUAAUGGAAUUCUCGGGUGCCAA,0.296
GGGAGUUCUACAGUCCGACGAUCGAAAGUGCAGGCUUUGGGAGCAGGUGGCAGAGGGAGGAAGCAAAGAAAGAGCCAAAUAUGAUGAUCACAGCUUAUAGUAGCAGUAAAACUGUUUUCUUUCUUUUUUCCUGUGGAAUUCUCGGGUGCCAA,0.593

# Sample 4 — technique: universal PBM; molecule type: double-stranded DNA, one strand shown; matrix: in vitro; tested at: 600 nM; reading: higher = stronger binding
# Target: Sal-like protein 4, full length isoform A (SALL4, Homo sapiens, UniProt Q9UJQ4, residues 1-1053)
# Sequence of UniProt Q9UJQ4 (whole entry, looked up): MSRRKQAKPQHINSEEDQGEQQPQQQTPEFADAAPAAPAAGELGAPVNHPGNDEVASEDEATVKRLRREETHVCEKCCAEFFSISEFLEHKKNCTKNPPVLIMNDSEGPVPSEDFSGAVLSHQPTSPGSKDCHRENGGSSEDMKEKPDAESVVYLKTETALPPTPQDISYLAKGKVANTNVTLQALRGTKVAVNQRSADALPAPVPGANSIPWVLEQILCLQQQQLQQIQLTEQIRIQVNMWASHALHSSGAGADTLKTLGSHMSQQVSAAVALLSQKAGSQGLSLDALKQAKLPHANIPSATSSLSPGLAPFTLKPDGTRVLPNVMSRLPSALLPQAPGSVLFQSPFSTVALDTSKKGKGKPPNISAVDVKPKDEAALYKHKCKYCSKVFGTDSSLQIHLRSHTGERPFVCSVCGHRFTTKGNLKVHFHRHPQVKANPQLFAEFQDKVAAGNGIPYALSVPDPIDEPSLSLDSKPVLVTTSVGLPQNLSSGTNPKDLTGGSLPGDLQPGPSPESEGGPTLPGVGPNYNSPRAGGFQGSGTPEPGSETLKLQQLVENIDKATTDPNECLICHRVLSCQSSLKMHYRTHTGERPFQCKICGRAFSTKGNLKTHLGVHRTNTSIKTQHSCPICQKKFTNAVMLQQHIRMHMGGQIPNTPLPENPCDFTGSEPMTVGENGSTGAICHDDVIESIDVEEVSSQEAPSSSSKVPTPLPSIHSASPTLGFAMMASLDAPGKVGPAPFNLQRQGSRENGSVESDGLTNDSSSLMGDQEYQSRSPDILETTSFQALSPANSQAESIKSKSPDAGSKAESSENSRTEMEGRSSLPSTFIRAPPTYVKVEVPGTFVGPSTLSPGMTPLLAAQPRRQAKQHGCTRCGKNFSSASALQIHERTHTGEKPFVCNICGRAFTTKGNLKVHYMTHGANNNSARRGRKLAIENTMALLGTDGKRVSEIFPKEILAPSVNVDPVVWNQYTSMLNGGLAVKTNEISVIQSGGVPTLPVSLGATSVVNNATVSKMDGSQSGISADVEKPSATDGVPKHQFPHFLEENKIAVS
# Notes: 8-mer, flanks averaged, mean of replicates
Strand,E-score
ACTCGTGG,-0.0758
GGTCGGCA,-0.245
AAGGTTCG,-0.126
AAACGCTC,-0.0431
GGTTTGAC,-0.016
CCGTGGTA,-0.0777
AGCAAACG,-0.146
CGTCGCCA,-0.166
CACCGCGG,-0.335
GCACGCAA,-0.256
ATCGTCAC,0.0447
CCAATCGA,-0.0818
ACGTAGCT,-0.00434
ACTCAGAG,-0.123
ACATTAAA,0.308
GCGAGGAC,-0.246

# Sample 5 — target: UBE2I UBC core domain (UniProt P63279); technique: yeast two-hybrid; matrix: yeast; notes: mostly zero background; baseline: not given; reading: higher = stronger interaction
# B1: RING1 RING domain (UniProt Q06587); chain SPRSLHSELMCPICLDMLKNTMTTKECLHRFCSDCIVTALRSGNKECPTCRKKLVSKRSLR
# B2: NFX1 RING domain (UniProt Q12986); chain IEQLTTEKYECMVCCELVRVTAPVWSCQSCYHVFHLNCIKKWARSPASQADGQSGWRCPACQNVSAHVPNTY
# B3: RUFY1 RING domain (UniProt Q96T51); chain QALKGHAWLKDDEATHCRQCEKEFSISRRKHHCRNCGHIFCNTCSSNELALPSYPKPVRVCDSCHTLLLQRCSSTAS
# B4: RNF6 RING domain (UniProt Q9Y252); chain NSIDSELGKICSVCISDYVTGNKLRQLPCMHEFHIHCIDRWLSENCTCPICRQPVLGSNIAN
# B5: TRIM11 RING domain (UniProt Q96F44); chain LSTNLQEEATCAICLDYFTDPVMTDCGHNFCRECIRRCWGQPEGPYACPECRELSPQRNLRP
# B6: ARIH2 RING domain (UniProt O95376); chain HVPTSHPPHHCAVCMQFVRKENLLSLACQHQFCRSCWEQHCSVLVKDGVGVGVSCMAQDCPLRTPEDFVF
# B7: MID2 RING domain (UniProt Q9UJV3); chain KMETLESELTCPICLELFEDPLLLPCAHSLCFSCAHRILVSSCSSGESIEPITAFQCPTCRYVISLNHRGL
# B8: ZNRF4 RING domain (UniProt Q8WWF5); chain VRTFTWHNDLCAICLDEYEEGDQLKILPCSHTYHCKCIDPWFSQAPRRSCPVCKQSVAATEDSF
# B9: VPS8 RING domain (UniProt Q8N3P4); chain TRGLNPKQDYCSICLQQYKRRQEMADEIIVFSCGHLYHSFCLQNKECTVEFEGQTRWTCYKCSSSNKVGKLSE
# B10: TRIM41 RING domain (UniProt Q8WV44); chain PVQTLQEEAVCAICLDYFTDPVSIGCGHNFCRVCVTQLWGGEDEEDRDELDREEEEEDGEEE
Sequence,lacZ reporter activity
DDVLTKDAGECVICLEELLQGDTIARLPCLCIYHKSCIDSWFEVNRSCPEHPAD (ZNRF1 RING domain (UniProt Q8ND25)),0
B1 (RING1 RING domain),0
B2 (NFX1 RING domain),0
B3 (RUFY1 RING domain),0
B4 (RNF6 RING domain),0
B5 (TRIM11 RING domain),0
FAEQPSVKLCCQLCCSVFKDPVITTCGHTFCRRCALKSEKCPVDNVKLTVVVNNI (TRAF7 RING domain (UniProt Q6Q0C0)),0
B6 (ARIH2 RING domain),0
FDPPLESKYECPICLMALREAVQTPCGHRFCKACIIKSIRDAGHKCPVDNEILLENQLFP (TRAF6 RING domain (UniProt Q9Y4K3)),0
B7 (MID2 RING domain),0
EIKEYKARLTCPCCNTRKKDAVLTKCFHVFCFECVRGRYEARQRKCPKCNAAFGAHDFHR (RNF40 RING domain (UniProt O75150)),0
B8 (ZNRF4 RING domain),0
B9 (VPS8 RING domain),0
B10 (TRIM41 RING domain),0

# Sample 6 — technique: DHFR PCA, deep sequencing; matrix: yeast; added: (+)-ABA 0.39 µM; baseline: wild-type fitted maximum; reading: higher = stronger binding
# Target: ABI1, truncated, D143A, DHFR fusion (Arabidopsis thaliana)
# Notes: methotrexate growth selection, single substitutions
# Starting sequence: PYL1, truncated, DHFR fusion (Arabidopsis thaliana); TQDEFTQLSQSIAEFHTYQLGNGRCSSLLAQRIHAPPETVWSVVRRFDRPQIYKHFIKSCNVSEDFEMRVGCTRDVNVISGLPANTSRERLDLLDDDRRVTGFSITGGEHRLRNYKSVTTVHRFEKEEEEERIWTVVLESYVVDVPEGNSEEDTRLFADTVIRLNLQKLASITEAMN; partner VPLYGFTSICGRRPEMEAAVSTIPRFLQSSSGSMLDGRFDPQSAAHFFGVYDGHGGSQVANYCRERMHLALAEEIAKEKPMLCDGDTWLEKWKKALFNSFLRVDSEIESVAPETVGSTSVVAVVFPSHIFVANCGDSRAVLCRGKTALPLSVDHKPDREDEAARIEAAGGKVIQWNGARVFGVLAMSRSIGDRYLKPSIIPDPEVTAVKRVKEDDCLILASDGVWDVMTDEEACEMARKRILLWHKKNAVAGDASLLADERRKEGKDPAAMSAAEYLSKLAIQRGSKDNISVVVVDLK
Substitution,relative binding score [%]
R99V,-15
T154A,7.42
I12E,-5.68
I79Y,34.8
M176D,16.8
V121A,18
V137G,8.05
G81Y,-14.5
S171Y,17.1
H55W,51.4
I162C,15.9
N165T,8.03
A30P,-4.77
V161W,73.6
T173C,67.1

# Sample 7 — technique: protein binding microarray; molecule type: double-stranded DNA, one strand shown; matrix: in vitro; tested at: not given; baseline: not given; reading: higher = stronger binding
# Target: Histone acetyltransferase KAT6A, both winged helices, GST fusion (KAT6A, Homo sapiens, UniProt Q92794, residues 1-181)
# Notes: 8-mer, flanks averaged, mean of 2 arrays, mostly near background
# Target sequence (chain): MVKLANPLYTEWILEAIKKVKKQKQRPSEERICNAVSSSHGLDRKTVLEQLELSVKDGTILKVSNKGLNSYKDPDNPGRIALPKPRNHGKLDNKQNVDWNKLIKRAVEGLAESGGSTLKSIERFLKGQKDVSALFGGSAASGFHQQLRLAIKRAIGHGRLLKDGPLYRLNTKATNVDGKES
Strand,E-score
GCGCGTGA,0.323
CATACCGA,0.0263
CTCGGAAC,0.0835
GATACCGA,0.115
CTCCACTA,-0.183
TAAATGTA,-0.0741
ATAGTTTA,-0.166
CGGCCTTA,0.218
TCAGGAGA,-0.29
ACGTGAGT,-0.16
AGGCGGAA,0.168
AGCCAAAA,-0.219
AAATGATG,-0.00972
AGATTTCA,-0.0109
AGGTATCC,-0.0414
GCGGGTGA,0.217
ATGAAAAC,0.0743
CGGCGCAA,0.291
CCAATGCC,-0.00106
CAGCGGGC,0.179
ATTGTTGC,-0.0304
ACCGTTCT,0.0292
GATGAAAA,0.059
CCCACAGA,-0.253

# For quick reference, copied from above (sample 7):
Strand,E-score
CGGCCTTA,0.218
TCAGGAGA,-0.29
ACGTGAGT,-0.16
AGGCGGAA,0.168
AGCCAAAA,-0.219
AAATGATG,-0.00972
AGATTTCA,-0.0109
